# Measurements collected from several papers.
# A part holds a random share of what one study measured. Changes are numbered by the printed parent chain.

# Series 1
# Target: Histone acetyltransferase KAT6A, winged helix 2, GST fusion (KAT6A, Homo sapiens, UniProt Q92794, residues 85-181)
# Technique: protein binding microarray
# Form: double-stranded DNA, one strand shown
# Sample: in vitro
# Concentration: not given
# Setting: 8-mer, flanks averaged, mean of 2 arrays, mostly near background
# Relative to: not given
# Reading: higher = stronger binding
# Construct (chain): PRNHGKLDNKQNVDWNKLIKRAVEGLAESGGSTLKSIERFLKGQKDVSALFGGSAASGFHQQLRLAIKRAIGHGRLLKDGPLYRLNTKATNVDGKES
Sequence,E-score
ATTTGTCG,0.0845
AGTGTATA,-0.217
CCTGACAC,-0.0284
CAACAGAC,-0.0568
GCCTGGAC,-0.0324
ACGACCGA,-0.0542
CAAAATAC,0.0434
ATAAGTCC,-0.0759
CCTCCGCA,-0.0438
TCCCTCAA,0.0573
CTCTCGGC,0.138
CAGTGATA,-0.0282
CCCAGTTA,-0.135
AGAATTCC,-0.0638
CTCTTTTA,-0.073
AAGTACTT,-0.229
CCCACAAG,0.194
AAACGCTC,-0.105
ATGTGGCA,-0.0933
AACATAAG,-0.0428
ACCTGACC,-0.208
CCCGGGAG,0.168

# Series 2
# Target: Ras GTPase-activating protein-binding protein 1, C-terminal RGG region (G3BP1, Homo sapiens, UniProt Q13283)
# UniProt Q13283, sequence (whole entry, looked up): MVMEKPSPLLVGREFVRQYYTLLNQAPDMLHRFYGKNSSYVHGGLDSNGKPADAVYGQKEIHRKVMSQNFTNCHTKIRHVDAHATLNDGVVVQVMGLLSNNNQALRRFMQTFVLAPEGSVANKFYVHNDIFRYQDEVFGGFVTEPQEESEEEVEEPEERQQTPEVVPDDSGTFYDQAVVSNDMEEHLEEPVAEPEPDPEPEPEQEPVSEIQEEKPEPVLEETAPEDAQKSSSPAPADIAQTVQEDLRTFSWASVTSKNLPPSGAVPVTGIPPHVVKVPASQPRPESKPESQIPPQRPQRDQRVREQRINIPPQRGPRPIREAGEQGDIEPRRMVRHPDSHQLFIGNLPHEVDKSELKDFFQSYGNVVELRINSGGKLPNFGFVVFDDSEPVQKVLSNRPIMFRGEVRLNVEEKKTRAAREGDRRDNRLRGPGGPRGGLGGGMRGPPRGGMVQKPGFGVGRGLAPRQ
# Technique: RNA Bind-n-Seq
# Form: RNA
# Sample: in vitro
# Concentration: 1 µM
# Setting: whole 134-nt RNA, ends assumed
# Added: 150 mM KCl
# Relative to: input library
# Reading: higher = stronger binding
Sequence,log2 enrichment
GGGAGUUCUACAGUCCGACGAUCCACAGACAACAAAAACCCACACAGACACAGAGGGAAGGGGUUGGGAUGGGGACAGGGUGCACAGCAGGGCGGGGUAGGACCCCAGCCCCUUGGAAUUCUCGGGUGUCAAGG,-0.255
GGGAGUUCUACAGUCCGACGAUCUCUGCUAAAGAGAAAGGAAAAUUUGAAGAUAUGGCAAAAGCGGACAAGGCCCGUUAUGAAAGAGAAAUGAAAACCUAUAUCCCUCCCAAAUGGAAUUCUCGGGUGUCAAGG,-0.529
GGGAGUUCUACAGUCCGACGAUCUGGCCCUGGUGGCAUGCGGGGAGGAAGAGGUGGCCUCAUGGAUCGUGGUGGUUCCGGUGGAAUGUUCAGAGGUGGCCGUGGUGGAGACAGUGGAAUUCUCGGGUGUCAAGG,1.44
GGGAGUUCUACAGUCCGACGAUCUCCUGUGCUACACAUCGUAUGUACCGAAUCGGUUUUUUGGGGUUUUUUGGGUUUUUUGGAAAGUAUUAUGUUACGCCGUUCGGAUCUGCAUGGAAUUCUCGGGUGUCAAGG,-0.566
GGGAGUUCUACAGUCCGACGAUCAAGUCCUGUGCUACACAUCGUAUGUACCGAAUCGGGUGGGUUUUUUUGGGUUUGGGAAAGUAUUAUGUUACGCCGUUCGGAUCUGCACUUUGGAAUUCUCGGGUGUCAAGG,0.00578
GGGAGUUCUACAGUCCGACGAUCUCCUCAAGUCCUGUGCUACACAUCGUAUGUACCGAAUCGGAGGUGGUUUGGAAAGUAUUAUGUUACGCCGUUCGGAUCUGCACUUCCAGCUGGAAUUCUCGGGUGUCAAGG,-0.93
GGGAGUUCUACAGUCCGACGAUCUAACUUUAGAGGAGGAUCUGAUGGAUAUGGCAGUGGACGUGGAUUUGGGGAUGGCUAGAAUGGGUAUGGAGGAGGACCUGGAGGUGGCAAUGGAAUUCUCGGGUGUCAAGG,-0.138
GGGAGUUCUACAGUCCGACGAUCCUCAAGUCCUGUGCUACACAUCGUAUGUACCGAAUCGGGGCGGCGGGGCGGGGAAAGUAUUAUGUUACGCCGUUCGGAUCUGCACUUCCAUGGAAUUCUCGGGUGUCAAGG,0.309
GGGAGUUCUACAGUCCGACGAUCUCAAGUCCUGUGCUACACAUCGUAUGUACCGAAUCGGAAAGGAAAAAGGAAAGGAAAGUAUUAUGUUACGCCGUUCGGAUCUGCACUUCCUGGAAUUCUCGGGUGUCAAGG,-1.6
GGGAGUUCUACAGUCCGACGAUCUCAAGUCCUGUGCUACACAUCGUAUGUACCGAAUCGGGGUUGGGUUGGGGUUGGAAAGUAUUAUGUUACGCCGUUCGGAUCUGCACUUCCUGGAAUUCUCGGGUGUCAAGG,0.0208

# Series 3
# Target: Interferon regulatory factor 3, full length, phosphomimetic (IRF3, Homo sapiens, UniProt Q14653, residues 1-427, S386D/S396D/S398D/S402D/T404D/S405D)
# UniProt Q14653, sequence (whole entry, unmodified, looked up): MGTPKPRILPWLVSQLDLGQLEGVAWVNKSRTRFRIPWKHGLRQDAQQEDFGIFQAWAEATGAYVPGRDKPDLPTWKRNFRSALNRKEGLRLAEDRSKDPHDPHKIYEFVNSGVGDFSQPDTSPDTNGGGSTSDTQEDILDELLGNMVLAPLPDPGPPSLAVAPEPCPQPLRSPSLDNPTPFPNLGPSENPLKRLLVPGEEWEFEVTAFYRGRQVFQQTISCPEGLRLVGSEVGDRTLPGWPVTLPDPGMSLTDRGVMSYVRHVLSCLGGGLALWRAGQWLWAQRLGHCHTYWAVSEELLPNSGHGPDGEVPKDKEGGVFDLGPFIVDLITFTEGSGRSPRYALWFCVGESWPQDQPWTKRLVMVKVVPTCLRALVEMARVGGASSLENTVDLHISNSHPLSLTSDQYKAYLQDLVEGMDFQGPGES
# Technique: protein-binding microarray
# Form: double-stranded DNA, one strand shown
# Sample: in vitro
# Concentration: 2540 nM top
# Setting: 60-bp whole probe
# Added: salmon DNA 0.4 mg/ml
# Relative to: random background probes
# Reading: higher = stronger binding
# Constant ends, left off below: GCCTAGCAC … GTCTTGATTCGCTTGACGCTGCTG
Sequence,fitted relative affinity [z-score]
ACAGAACTCAACTGTCTGCCTGTGCTA,-0.151
GACAATTTCAGTTTCGAGACGTGCTAG,4.74
TTGGGACTGCTTTTCCTTTAGTGCTAG,0.512
GACGGTATCGACTATAGGGACGTGCTA,0.596
TTAAGTATCGGTTTCGGTTAGTGCTAG,8.87
TTAGATTTCAGTTTCGTTTAGTGCTAG,6.11
TTGTTTTTTTCTATATGCAAGTGCTAG,2.02
TTAGAACTGAGTATCGATTTGTGCTAG,0.772
TTAGGACTAGGTATCGGTTAGTGCTAG,1.3
CACTTTCTTTAACTCATTCTGTGCTAG,2.81
GACGGAATGCTTTTCCTGACGTGCTAG,0.281
TTAGATATCGGGGCTGGATTAGTGCTA,-0.68
TTAGGTTTCGACACTGGGTGAGTGCTA,2.54
AACGGTATCGGGTATCGGGACGTGCTA,1.97
GACGATATCGGGTATCGAGAGGTGCTA,0.0904
TCCAAATTGTCTCTGTCCCTGTGCTAG,0.714
TTACATTTCAGACTGGATTAGTGCTAG,1.41

# Series 4
# Target: Sal-like protein 4, full length isoform A (SALL4, Homo sapiens, UniProt Q9UJQ4, residues 1-1053)
# UniProt Q9UJQ4, sequence (whole entry, looked up): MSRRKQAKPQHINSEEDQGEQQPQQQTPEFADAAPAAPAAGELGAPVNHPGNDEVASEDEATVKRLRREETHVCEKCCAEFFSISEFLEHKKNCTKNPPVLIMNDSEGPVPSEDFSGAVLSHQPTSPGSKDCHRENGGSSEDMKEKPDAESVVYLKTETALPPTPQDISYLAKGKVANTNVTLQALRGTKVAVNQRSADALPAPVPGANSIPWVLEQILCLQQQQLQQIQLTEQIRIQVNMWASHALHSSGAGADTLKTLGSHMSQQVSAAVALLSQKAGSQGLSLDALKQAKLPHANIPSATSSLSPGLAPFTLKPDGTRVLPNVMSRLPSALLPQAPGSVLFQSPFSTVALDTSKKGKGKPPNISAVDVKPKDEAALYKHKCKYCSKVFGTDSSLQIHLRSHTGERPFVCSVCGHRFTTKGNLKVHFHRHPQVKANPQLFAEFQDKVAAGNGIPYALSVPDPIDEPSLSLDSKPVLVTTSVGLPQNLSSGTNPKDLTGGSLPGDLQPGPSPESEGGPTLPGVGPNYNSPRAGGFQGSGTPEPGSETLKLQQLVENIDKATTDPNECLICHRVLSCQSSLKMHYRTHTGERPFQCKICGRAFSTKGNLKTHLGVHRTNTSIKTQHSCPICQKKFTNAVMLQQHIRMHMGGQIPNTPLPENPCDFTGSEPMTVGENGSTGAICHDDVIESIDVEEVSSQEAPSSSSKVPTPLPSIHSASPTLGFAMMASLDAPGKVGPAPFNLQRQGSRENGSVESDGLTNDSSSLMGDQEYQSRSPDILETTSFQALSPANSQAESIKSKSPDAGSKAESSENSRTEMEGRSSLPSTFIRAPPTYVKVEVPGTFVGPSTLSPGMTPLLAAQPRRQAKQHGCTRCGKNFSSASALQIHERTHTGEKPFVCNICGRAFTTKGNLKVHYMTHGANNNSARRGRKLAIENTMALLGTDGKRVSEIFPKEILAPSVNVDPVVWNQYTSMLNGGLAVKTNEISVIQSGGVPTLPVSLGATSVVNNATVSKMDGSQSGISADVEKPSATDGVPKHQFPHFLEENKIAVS
# Technique: universal PBM
# Form: double-stranded DNA, one strand shown
# Sample: in vitro
# Concentration: 600 nM
# Setting: 8-mer, flanks averaged, mean of replicates
# Reading: higher = stronger binding
Sequence,E-score
GCGGAAGC,-0.295
GAGTTTGC,-0.134
AGGTTTAT,0.308
TAATTGAA,0.228
AATCTGAC,0.0869
CGACGCCC,-0.234
ACTTCTCG,0.0843
CCTCCCCC,-0.253
AGATCGAA,0.143
CGAAGGTA,0.0636
AGCAATCC,-0.121
CACAGCCG,-0.236
AAGATGTC,0.00715
ACCTCGGC,-0.291
CGTACAAA,0.125
ACGTTATC,0.112
AATTAACC,0.0795
CATCCAGG,-0.232
GCCGTCGA,-0.287
CCAACGTA,-0.031
CCTAAAAA,0.106
CAAGAACC,0.0147
AATAAATC,0.285
AGGCTAAA,-0.0386
GGTCGAAC,-0.208

# Series 5
# Target: ABI1, truncated, D143A, DHFR fusion (Arabidopsis thaliana)
# Technique: DHFR PCA, deep sequencing
# Sample: yeast
# Setting: methotrexate growth selection, single substitutions
# Added: (+)-ABA 0 µM
# Relative to: wild-type fitted maximum
# Reading: higher = stronger binding
# Starting sequence: PYL1, truncated, DHFR fusion (Arabidopsis thaliana); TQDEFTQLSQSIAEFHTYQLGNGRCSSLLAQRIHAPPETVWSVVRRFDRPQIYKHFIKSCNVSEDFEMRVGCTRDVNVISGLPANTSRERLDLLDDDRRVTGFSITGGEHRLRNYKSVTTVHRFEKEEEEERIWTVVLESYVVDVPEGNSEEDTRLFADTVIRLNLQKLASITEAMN
Variant,relative binding score [%]
R32K,28.1
E67T,20.2
T173W,-6.18
E131T,43.7
S80I,22.1
D144E,2.43
F15H,15.8
E131D,42.6
F103S,0.74
N165M,8.69
G102P,-0.935
T106E,8.49
L138D,0.984
V78S,13.7
I105R,1.61
S59Q,5.28
Y115R,2.02
F5S,3.29
L20W,2.02
P83D,4.42
F103W,-3.37
D3M,31.8

# A few entries again (series 5):
Variant,relative binding score [%]
S80I,22.1
D144E,2.43
F15H,15.8
E131D,42.6
F103S,0.74
N165M,8.69
G102P,-0.935
T106E,8.49
L138D,0.984
V78S,13.7
I105R,1.61
S59Q,5.28
Y115R,2.02
F5S,3.29
